Results gathered from unrelated publications.
Numbered parts are unrelated; each lists some results of a single study.

Sample 1
Target: RNA binding protein fox-1 homolog 2, RRM domain, GST-SBP tag (RBFOX2, Homo sapiens, UniProt O43251-10, residues 100-194)
Technique: RNA Bind-n-Seq
Form: RNA
Medium: in vitro
Tested at: 365 nM
Notes: natural RNA segment, single round, ends assumed
Reference: no-protein control
Direction: higher = stronger binding
Quantity: RBNS enrichment (R)
Residues (chain): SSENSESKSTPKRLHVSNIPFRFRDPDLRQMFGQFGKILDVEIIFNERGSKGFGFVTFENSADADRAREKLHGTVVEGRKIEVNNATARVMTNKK
GGGAGUUCUACAGUCCGACGAUCUCGUUUCUGGGAAGAGAAUCAAUACCUGUUAGAGCCAGAAUGCUCCAAGUCUUUUAGCUUGUUCAUUUUGUAAUGAUUCUAAAAUAAUUCCAAAGAUAUAGCAGCUCAUAUGGAAUUCUCGGGUGCCAA: 0.495
GGGAGUUCUACAGUCCGACGAUCAGUAAGAAAUGACAAACUGCUUUGUUUCAUUUCAUAAACAAACUCUGCAUUUAGAUAACUAUUAAAGGUUGUUAAGAUGAAGAUUUACUGUUUCUUUGUUACUCGUUGGUUGGAAUUCUCGGGUGCCAA: 0.298
GGGAGUUCUACAGUCCGACGAUCAGAAGGCUUGGCUUUCUUGACUUUCUUGCAUAAGAGUGAAAUACUCCUUACCCAGGGUAUCAUAGUUCUAAGAAUGAAAGCACCUUAAAUGCCUUGCACAGAACCAAUUUUGGAAUUCUCGGGUGCCAA: 0.422

Sample 2
Target: Interferon regulatory factor 5, full length, phosphomimetic (IRF5, Homo sapiens, UniProt Q13568-2, residues 1-514, S451D/S453D/S456D/S462D)
Technique: protein-binding microarray
Form: double-stranded DNA, one strand shown
Medium: in vitro
Tested at: 940 nM top
Notes: 60-bp whole probe
Added: salmon DNA 0.4 mg/ml
Reference: random background probes
Direction: higher = stronger binding
Quantity: fitted relative affinity
GCCTAGCACGACGGTTCCGGTTTCGGGAGGTGCTAGGTCTTGATTCGCTTGACGCTGCTG: 4.98 z-score
GCCTAGCACTTAGGTATCCGGACTGGGTTAGTGCTAGTCTTGATTCGCTTGACGCTGCTG: -0.176 z-score
GCCTAGCACTTAGGACTGCTTTTCCTGTAGTGCTAGGTCTTGATTCGCTTGACGCTGCTG: -0.276 z-score

Sample 3
Target: Sal-like protein 4, full length isoform B (SALL4, Homo sapiens, UniProt Q9UJQ4-2, residues 1-616)
Technique: universal PBM
Form: double-stranded DNA, one strand shown
Medium: in vitro
Tested at: not given
Notes: 8-mer, flanks averaged, mean of replicates
Direction: higher = stronger binding
Quantity: E-score
Target sequence (chain): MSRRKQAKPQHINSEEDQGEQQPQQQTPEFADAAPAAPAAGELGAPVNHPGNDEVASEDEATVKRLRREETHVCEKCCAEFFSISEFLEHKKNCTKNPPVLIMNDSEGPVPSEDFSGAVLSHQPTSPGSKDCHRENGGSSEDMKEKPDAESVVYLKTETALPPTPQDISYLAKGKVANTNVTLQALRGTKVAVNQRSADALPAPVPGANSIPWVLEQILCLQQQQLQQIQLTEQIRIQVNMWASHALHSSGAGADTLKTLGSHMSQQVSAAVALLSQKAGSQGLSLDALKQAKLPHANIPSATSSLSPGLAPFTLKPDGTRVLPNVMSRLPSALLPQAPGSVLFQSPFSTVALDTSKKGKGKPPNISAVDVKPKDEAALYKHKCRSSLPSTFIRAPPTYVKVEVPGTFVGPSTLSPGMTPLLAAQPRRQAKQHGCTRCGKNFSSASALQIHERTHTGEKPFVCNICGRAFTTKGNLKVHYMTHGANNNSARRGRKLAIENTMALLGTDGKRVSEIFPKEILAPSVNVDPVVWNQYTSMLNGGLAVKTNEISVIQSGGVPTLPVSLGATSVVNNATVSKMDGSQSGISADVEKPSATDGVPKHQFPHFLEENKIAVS
TATAAAGA: 0.278
CTGTCGAC: -0.0629
AGAACTCA: 0.0766
GAAAGCCA: -0.187
AGAGTCAT: 0.0591

Single results of other studies
PhoQ, residues 284 288 289 292 302 303 SCEHLI
fold induction (PhoP, residues 12 14 15 18 19 IQSYL (Escherichia coli, UniProt P23836); Sort-seq, measured: YFP reporter; E. coli; PhoQ-PhoP variant library, added: 10 µM Mg2+; reference: high Mg2+ state, higher = stronger signaling): 9.55
